Results collected from several papers.
Each numbered part is a random draw from the data of one study; scales do not carry over between parts. Positions count from the first letter of the parent shown.

Block 1
Target: Centromere-binding protein 1, full length, His-tagged (CBF1, Saccharomyces cerevisiae, UniProt P17106, residues 1-351)
UniProt P17106, sequence (whole entry, looked up): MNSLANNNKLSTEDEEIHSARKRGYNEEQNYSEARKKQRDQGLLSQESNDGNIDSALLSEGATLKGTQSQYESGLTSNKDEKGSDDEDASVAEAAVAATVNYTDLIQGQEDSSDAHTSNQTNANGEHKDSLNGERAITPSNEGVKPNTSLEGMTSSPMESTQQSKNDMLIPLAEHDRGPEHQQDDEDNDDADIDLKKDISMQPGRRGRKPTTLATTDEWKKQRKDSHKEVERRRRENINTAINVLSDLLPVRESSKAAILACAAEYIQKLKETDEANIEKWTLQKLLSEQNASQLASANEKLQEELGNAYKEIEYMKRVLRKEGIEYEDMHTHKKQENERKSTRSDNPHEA
Technique: competition protein-binding microarray
Molecule type: double-stranded DNA, one strand shown
Sample: in vitro
Concentration: 2 µM
Notes: whole 60-bp probe, lowest competitor level
Together with: Pho4 competitor, 0.05 µM
Reading: higher = stronger binding
`TACTATTATTAGACTTCATTACTGAGTTTATTAGTTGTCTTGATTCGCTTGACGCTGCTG` has a fluorescence intensity of 93.4 a.u.
For `TCATACACAATGCGACACATGAAAATACTACTCTTTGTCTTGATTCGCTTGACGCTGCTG`, the fluorescence intensity was 83.4 a.u.
`ACTACGAGGGCCCTGTTCGTGGGACAGATTTCCATCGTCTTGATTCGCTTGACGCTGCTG` gave a fluorescence intensity of 48.7 a.u.
With `CATACCCAACCTTGATTTGTGGGTGAAGATATTTGTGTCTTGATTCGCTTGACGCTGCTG` the fluorescence intensity was 72.8 a.u.
For `CTATTTTTCCTCTGGCGCGTGAATAGCCCGCAGAGAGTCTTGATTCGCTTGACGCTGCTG`, the fluorescence intensity was 80.5 a.u.
The fluorescence intensity of `CAAGTTCCGGGGCGTCACATGGAAACAATGGCACTTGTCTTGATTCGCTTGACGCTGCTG` is reported as 372 a.u.
`CGCCCGTATTCGGGCAACGTGAGCCCAAATACGCCTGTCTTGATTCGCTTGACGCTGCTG` gave a fluorescence intensity of 176 a.u.
`GTCTTGTCTCATTGTCACTTGACTTTCCCCACTTCAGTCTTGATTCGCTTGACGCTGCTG` has a fluorescence intensity of 147 a.u.
With `TAATGCGCTTGCATGTATGTGCGTACATGTATGTGTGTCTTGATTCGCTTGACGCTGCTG` the fluorescence intensity was 82.5 a.u.
`TGCGCAACAACTTGAGAAGTGGGTGTATGTCTAGAAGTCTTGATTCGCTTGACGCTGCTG` gave a fluorescence intensity of 76 a.u.
With `GCACTTTCACTACTAGACGTGCTTTTAAAAAATTGTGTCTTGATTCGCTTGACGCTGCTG` the fluorescence intensity was 91.8 a.u.
The fluorescence intensity of `AAATTACTAAGTTGCGCAGTGGGTGACGCCGTATGAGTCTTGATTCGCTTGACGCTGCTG` is reported as 56.9 a.u.
`CCGGCGCTGCTAAATCATGTGAGTTTAGCGCGTACCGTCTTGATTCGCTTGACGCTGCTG` has a fluorescence intensity of 324 a.u.
With `AACATATTGTGTTGACATGTGTAGGCAAAGACAAAAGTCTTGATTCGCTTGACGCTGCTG` the fluorescence intensity was 105 a.u.
`AAATTTTTACTAGGACACGTGTAACACAGCTCCATGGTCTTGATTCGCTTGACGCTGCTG` has a fluorescence intensity of 1390 a.u.
For `TGCACCAATGTCCTCCACGGGATCGCCACTTTTTTTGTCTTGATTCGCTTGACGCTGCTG`, the fluorescence intensity was 139 a.u.
The fluorescence intensity of `CTTCCGCGCCGTATGTGTGTGTGTCCAAGGAGTTTGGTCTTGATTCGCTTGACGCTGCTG` is reported as 70.3 a.u.
With `TTTTTTTTCCGTAGTGCCGTGCCGACATTACCGAATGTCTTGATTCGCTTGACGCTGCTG` the fluorescence intensity was 71.3 a.u.
`CTAACGAAGGTTTGGAACGTGGGTGACAAGCCAAGTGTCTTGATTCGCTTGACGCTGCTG` has a fluorescence intensity of 81.1 a.u.
For `CCAAATTGGCTGAAGAGCGTGGCCGGACGAACATTCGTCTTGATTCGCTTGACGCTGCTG`, the fluorescence intensity was 60.1 a.u.
The fluorescence intensity of `TGCGCAACAACTTGGCTGGTGGGTGTATGTCTAGAAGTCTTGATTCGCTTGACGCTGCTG` is reported as 61.4 a.u.
`CGTCCTAGTGATTGGGAGGTGGGTGCCATGAGGAAGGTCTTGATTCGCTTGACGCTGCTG` gave a fluorescence intensity of 85.1 a.u.
The fluorescence intensity of `TAAAAGAACTAGAGCATCGTGATGGTATGATTCACTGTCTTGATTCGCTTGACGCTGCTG` is reported as 100 a.u.
`CTTTCCCGATCTTTTCACGTGAATTTAGCACATTTGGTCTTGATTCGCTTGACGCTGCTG` has a fluorescence intensity of 932 a.u.
The fluorescence intensity of `CTAACGAAGGTTTGTGGCGTGGGTGACAAGCCAAGTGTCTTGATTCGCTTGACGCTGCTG` is reported as 67 a.u.

Block 2
Target: RNA binding protein fox-1 homolog 2, RRM domain, GST-SBP tag (RBFOX2, Homo sapiens, UniProt O43251-10, residues 100-194)
Technique: RNA Bind-n-Seq
Molecule type: RNA
Sample: in vitro
Concentration: 365 nM
Notes: natural RNA segment, single round, ends assumed
Reference: no-protein control
Reading: higher = stronger binding
Residues (chain): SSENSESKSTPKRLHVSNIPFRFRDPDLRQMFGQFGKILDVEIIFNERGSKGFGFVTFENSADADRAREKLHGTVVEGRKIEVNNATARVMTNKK
`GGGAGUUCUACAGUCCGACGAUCUUAUCCUUCUCCUUUGAAAGAUUUUCAAUAUUUUAGUAUAAUAAAGAGCUGUAUGUUGAGCCAUCUGUGUCGGGAUUUGUGUUCUCCUGUUCUUUUUCAGUUCCUCUCUAUGGAAUUCUCGGGUGCCAA`: “RBNS enrichment (R)” 0.736.
For `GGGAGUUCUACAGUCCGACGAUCUGCCAGCUGGUGUUUGGAAGUAGGAACCAUGAUGGCAUUACCUGGACAAGGAGAUUGGGGACAACUCUUAAGUCUCACACAGGAGGCUUUUAAACACUAAAAUGUCUAAUUGGAAUUCUCGGGUGCCAA`, “RBNS enrichment (R)” read 0.643.
For `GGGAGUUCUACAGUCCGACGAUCAUUCUCAUCAGGGUUUCUUGUGCCCUUCUGCUGUGGCAGUGACAACUGUGCCUAGCCGGGGCUGCCACAGCUCCCAGGUAUUUUCUACAGGACCAUCUGAGCGGGCAGCCUGGAAUUCUCGGGUGCCAA`, “RBNS enrichment (R)” read 0.352.
For `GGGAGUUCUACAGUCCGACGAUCUCCCCCUGUGUUUUCACGCAGGUCAUAUUGUCAGUCCUACAAAAAUAAAAGGCUUCCAGAGGAGAGUGGCCUGGGUCCCAGGGCUGGCCCUAGGCACUGAUAGUUGCCUUUGGAAUUCUCGGGUGCCAA`, “RBNS enrichment (R)” read 0.419.
`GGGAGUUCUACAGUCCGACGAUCAGUUUUAGGAACUGUAGUAAUGUGGCUUAGAAAGUAUAAUGGCCUAAAUGUUUUCAAAAUGUAAGUUCCUGUGGAGAAGAAUUGUUUAUAUUGCAAACGGGGGGACUGAGUGGAAUUCUCGGGUGCCAA` — result for “RBNS enrichment (R)”: 2.45.
`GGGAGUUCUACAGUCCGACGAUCCUUUCCUGAGGACCCGGCAGAAAUGCAGAACCAUCCAUGGACUGUGAUUCUGAGGCUGCUGAGACUGAACAUGUUCACAUUGACAGAAAAACAAGCUGCUCUUUAUAAUAUGGAAUUCUCGGGUGCCAA`: “RBNS enrichment (R)” 0.273.
`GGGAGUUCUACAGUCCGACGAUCAAUGAAUAUUAAAAGCAUGGAGAGGAAACAUGAGGAACAAUGAAUUUCAACAUAUGGCUUCAGAACAUGAAGAUGUUCUUGUAUGGAUUAUAGUAUCUAGUAUUCAAAAAUGGAAUUCUCGGGUGCCAA` — result for “RBNS enrichment (R)”: 4.06.
Under “RBNS enrichment (R)”, `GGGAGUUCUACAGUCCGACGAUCUGUAAUAUAGUUUUGUGAAUUUAUUGCACUGAUGUUGUACCUUGUGGUAUAUCUGUCCCUAUUAAAUAAGUGUUGUUUUCUCCUCUUUAAUAUUGCUGUGAACAGUGGUGUGGAAUUCUCGGGUGCCAA` is recorded as 0.447.
`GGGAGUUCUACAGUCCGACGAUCAAUUUUAUAGGGAAAAGGGUAUCAUGAUUGAAUUCAGAAUCUUACUUUAUAAGGUCAGUGUGCAUUUGUUCUAGUUAUAAUGCUUUUAAAUUGUACUUUUUCUUCCCAUGUGGAAUUCUCGGGUGCCAA` — result for “RBNS enrichment (R)”: 0.412.
`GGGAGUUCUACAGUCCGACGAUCAAUGUCCCUUGCACAGCCCACACAUGAACCAUCCUUCCCAUGAUGCCGCUCUUCUGUCAUCCCGCUCCUGCUGAAACACCUCCCAGGGGCUCCACCUGUUCAGGAGCUGAUGGAAUUCUCGGGUGCCAA` — result for “RBNS enrichment (R)”: 0.904.
`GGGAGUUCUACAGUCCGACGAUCACAGUUUUAGAAGUCAGUAGAAUAAAACCUUAAAGCGUUCUUAUAAUAUGGCAUCUUUCGAUUUCUGUAUAAAAACAGACCUUUUAAAAAAUAUUUCUGUAACUUAAGAAUGGAAUUCUCGGGUGCCAA` — result for “RBNS enrichment (R)”: 0.751.
`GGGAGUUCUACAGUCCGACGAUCCCACUGGCCUGAAUAAUUAGCCUUUUCCAGAUCUUCAGUAUCUUCCACAACUACUGCCAUACCCUGUGUUGUAUCAUUUGACCAGGAGGGAAACCUUGAAUUGGGGUGUGUGGAAUUCUCGGGUGCCAA`: “RBNS enrichment (R)” 0.426.

Block 3
Target: CCNF, cyclin fold, Cln2 fusion (human)
Technique: yeast growth competition, sequencing
Sample: yeast
Notes: strong parent motif
Reference: not given
Reading: higher = stronger binding
Starting sequence: WEE1 docking peptide (human); CTLRQKLIFSPCS
`L3A`: “normalised enrichment score” 4.96.
Under “normalised enrichment score”, `K6A` is recorded as 1.5.
Under “normalised enrichment score”, `C12A` is recorded as 3.67.
For `Q5A`, “normalised enrichment score” read 2.36.
Under “normalised enrichment score”, `P11A` is recorded as 1.13.
Under “normalised enrichment score”, `S13A` is recorded as 3.66.

Block 4
Target: Histone acetyltransferase KAT6A, winged helix 2, GST fusion (KAT6A, Homo sapiens, UniProt Q92794, residues 85-181)
Technique: protein binding microarray
Molecule type: double-stranded DNA, one strand shown
Sample: in vitro
Concentration: not given
Notes: 8-mer, flanks averaged, mean of 2 arrays, mostly near background
Reference: not given
Reading: higher = stronger binding
Construct (chain): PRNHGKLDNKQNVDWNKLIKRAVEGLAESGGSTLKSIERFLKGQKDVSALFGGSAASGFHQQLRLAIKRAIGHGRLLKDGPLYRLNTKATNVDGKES
With `CGTGTATA` the E-score was -0.226.
`AACCGCAG` gave an E-score of 0.111.
For `GATGTAGC`, the E-score was -0.119.
`AAATCTCG` gave an E-score of 0.0183.
The E-score of `AAACATTA` is reported as -0.0732.
`ATAACTGA` has an E-score of -0.0517.
For `TATCAAGA`, the E-score was -0.0542.
With `GAACAGCC` the E-score was -0.0224.
The E-score of `CAGCGTTA` is reported as -0.194.
`AGATACCC` has an E-score of 0.0574.
For `GGCCGGCC`, the E-score was 0.161.
`GACGGGGA` has an E-score of -0.0623.
The E-score of `TACACGTA` is reported as -0.187.
For `TAGCCTCA`, the E-score was 0.0406.
For `TGGTGTAA`, the E-score was -0.169.
The E-score of `ACGAACCT` is reported as 0.07.
For `AGTTTTTG`, the E-score was -0.0677.
With `CACCTCAG` the E-score was -0.109.
`AGATATAG` gave an E-score of -0.0666.
`AATCCCAA` has an E-score of -0.0981.
`AGAGGGAC` has an E-score of 0.114.
With `ACGGATCA` the E-score was 0.01.
`TGGAGCCA` has an E-score of -0.0796.
`CCGCGGGC` has an E-score of 0.0198.
With `CCAACTCA` the E-score was 0.0799.
